Experimental data gathered from unrelated publications.
Every numbered part comes from another study and shows a few of its results, in no order.

Study 1
Target: Histone acetyltransferase KAT6A, winged helix 1, GST fusion (KAT6A, Homo sapiens, UniProt Q92794, residues 1-85)
Technique: protein binding microarray
Form: double-stranded DNA, one strand shown
Medium: in vitro
Tested at: not given
Notes: 8-mer, flanks averaged, mean of 2 arrays, mostly near background
Relative to: not given
Reading: higher = stronger binding
Endpoint: E-score
Target sequence (chain): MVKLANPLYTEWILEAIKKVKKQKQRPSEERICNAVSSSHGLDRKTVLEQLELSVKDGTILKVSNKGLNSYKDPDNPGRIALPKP
ATCGGAAA: 0.123
AGCAGGAT: -0.312
ATCCCTGG: -0.2
CCCTTCGC: 0.0659
ATCCCAGG: -0.212
CTCAGATC: -0.158
GATACCGA: 0.0968
CCTTGCTA: -0.134
AGTATTTA: -0.173

Study 2
Target: Hepatocyte nuclear factor 3-beta, forkhead domain (FOXA2, Homo sapiens, UniProt Q9Y261, residues 142-269)
Technique: protein-binding microarray
Form: double-stranded DNA, one strand shown
Medium: in vitro
Tested at: not given
Notes: k-mer, scored over probes, only values ≥0.25
Reading: higher = stronger binding
Endpoint: E-score
Residues (chain): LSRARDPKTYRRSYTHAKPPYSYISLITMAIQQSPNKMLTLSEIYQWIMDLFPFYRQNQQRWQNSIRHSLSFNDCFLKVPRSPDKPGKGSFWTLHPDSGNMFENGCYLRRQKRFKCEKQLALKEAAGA
ATAATTGC: 0.266
ATATGTTC: 0.28
CACAACAC: 0.28
CCACTATA: 0.26
AAACAGTG: 0.26
GTATATTA: 0.406

Study 3
Target: TAR DNA-binding protein 43, full length, His tag (TARDBP, Homo sapiens, UniProt Q13148, residues 1-414)
Technique: RNA Bind-n-Seq
Form: RNA
Medium: in vitro
Tested at: 20 nM
Notes: 6-mer, flanks averaged, single round
Added: 150 mM LiCl
Relative to: input library
Reading: higher = stronger binding
Endpoint: 6-mer enrichment (R)
CAGAUU: 0.814
UCGCCC: 0.99
GUUUCC: 1.02
CUCGCC: 0.877
CAGGCA: 0.895
AAACCA: 0.819
CGGAUA: 0.893
ACGGAG: 0.958
GGCUCU: 0.901

Mixed results
PhoQ, residues 284 288 289 292 302 303 ASHLAV — fold induction (PhoP, residues 12 14 15 18 19 HEGLL (Escherichia coli, UniProt P23836); Sort-seq, refers to: YFP reporter; E. coli; PhoQ-PhoP variant library, added: 10 µM Mg2+; relative to: high Mg2+ state, higher = stronger signaling): 3.01

Excerpt of the above (study 3):
ACGGAG: 0.958
GGCUCU: 0.901
